# Measurements pooled from the literature.
# Every numbered part comes from another study and shows a few of its results, in no order. Substitutions count along the parent as printed.

# Sample 1 — technique: aptamer microarray, sandwich; form: DNA with 2'F-ANA; sample: in vitro; tested at: 200 nM; added: Cy3 exosite-II aptamer, 400 nM; reading: higher = stronger binding; strand: GGTTGGTGTGGTTGG
# Target: Prothrombin, mature alpha-thrombin (F2, Homo sapiens, UniProt P00734)
# Setting: whole 15-mer aptamer, many near background
Modification,mean fluorescence intensity
2'F-ANA at 3 5 6 8 9 12 13,167 a.u.
2'F-ANA at 5 9 10 12 14 15,45.9 a.u.
2'F-ANA at 1 3 5 8 9 12 13,91.4 a.u.
2'F-ANA at 1 3 5 7 11 13 14 15,50.6 a.u.
2'F-ANA at 1 4 5 6 7 8 10 12 13 15,50.9 a.u.
2'F-ANA at 1 4 5 6 7 10 11 12 14,46.3 a.u.
2'F-ANA at 1 2 3 4 6 7 8 10 11 12,66.9 a.u.
2'F-ANA at 2 3 4 5 7 8 9 10 11 13 14,49.8 a.u.
2'F-ANA at 1 2 3 4 5 7 10 11 13 15,51.8 a.u.
2'F-ANA at 2 3 4 7 8 10 11 12 15,323 a.u.
2'F-ANA at 2 5 6 7 9 11 12 13 14 15,102 a.u.
2'F-ANA at 1 3 4 5 7 9 10 13,45.7 a.u.
2'F-ANA at 1 2 5 6 7 8 12 15,135 a.u.
2'F-ANA at 1 3 4 6 7 12 14 15,84.2 a.u.
2'F-ANA at 2 3 4 7 8 9 10 12 13,295 a.u.
2'F-ANA at 1 2 3 4 9,209 a.u.
2'F-ANA at 1 2 5 6 8 9 13 15,64.3 a.u.
2'F-ANA at 1 5 8 12 13,84.7 a.u.
2'F-ANA at 1 2 10 11 13 14 15,56.6 a.u.
2'F-ANA at 5 8 10 13,52.5 a.u.
2'F-ANA at 1 3 4 5 6 10 11 12,50.9 a.u.

# Sample 2 — technique: protein binding microarray; form: double-stranded DNA, one strand shown; sample: in vitro; tested at: not given; relative to: not given; reading: higher = stronger binding
# Target: Histone acetyltransferase KAT6A, winged helix 2, GST fusion (KAT6A, Homo sapiens, UniProt Q92794, residues 85-181)
# Setting: 8-mer, flanks averaged, mean of 2 arrays, mostly near background
# Construct (chain): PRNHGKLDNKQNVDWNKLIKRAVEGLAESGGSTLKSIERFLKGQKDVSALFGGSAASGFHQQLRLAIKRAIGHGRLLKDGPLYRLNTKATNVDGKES
Strand,E-score
AATGATGT,-0.0723
CCTGCCTA,0.136
CCATCGCG,0.213
TATCCGCA,0.112
CAAAATCA,0.0569
AGGTTCAG,0.124
CCGCTGTA,0.144
ACATACCG,-0.139
CTTCAAAA,0.146
ACCGAATC,-0.0962
CATACCTA,-0.123
TGAGGAAA,-0.0273
GCTACGAA,-0.0309
ATTTGACC,0.0129
ACAGGGCT,-0.133
ACTGGACT,-0.053
ATGTACCA,-0.0733

# Sample 3 — technique: RNA Bind-n-Seq; form: RNA; sample: in vitro; tested at: 365 nM; relative to: no-protein control; reading: higher = stronger binding
# Target: RNA binding protein fox-1 homolog 2, RRM domain, GST-SBP tag (RBFOX2, Homo sapiens, UniProt O43251-10, residues 100-194)
# Setting: natural RNA segment, single round, ends assumed
# Shared flanks, not repeated: GGGAGUUCUACAGUCCGACGAUC … UGGAAUUCUCGGGUGCCAA
# Residues (chain): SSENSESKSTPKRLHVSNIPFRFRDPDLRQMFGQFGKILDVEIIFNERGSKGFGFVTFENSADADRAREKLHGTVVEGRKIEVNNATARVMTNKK
Strand,RBNS enrichment (R)
CUGCGAACUCUCAGGACUACCGUUACCAAGAGGUUAGGUGAAGUGGUUUAAACCAAACGGAACUCUUCAUCUUAAACUACACGUUGAAAAUCAACCCAAUAAUUCUGUAU,0.298
UCUGACCUCAUGCUGCACACACUGUGGAAUUUCUUCAAGGAAGCUGUAGGUCGGUGCAGGAUCCCCAGAAGUGCAGGUCUCUCCAGUCUGCAGUUUGCCAACUUGUCUGC,1
GCCAUGCACCAGGACUGGCUGUGUAACCUUGGGUGGCCCCUGCUGUCUCUCUGGGCUGCAGAGUCUGCCCCACAUGUGGCCAUGGCCUCUGCAACUGCUCAGCUCUGGUC,0.316
CCCCUGUUCCAUUCCCCUCUUCUUCCUUCUAUCUCCUUCCCCGGCAAAAACCAAACAAACUGGCAGACAGGCCAGGGAUGUAUGUUGCUUGCUUGAGAGGGUUUCUUUUA,0.463
CAGGAGAAUUGCUUGAACUCAGAAGGCGGAGGCUGCAGUGAGCCGAGAUCGUGCCACUGCACUCCAGCCUGGUCAACAGAGCAAGACUCCAUCUCGAAGAAAAAAAAAAA,0.33
UUGUGGUUUCUGUUUCUUGAGAAAAAUUUUUUGUUAUUUUUACAUCUAACAGAGGAAAAAAAAUUUAAAAAGAGGGUAAGAAAUGACUCCAGUGGGGUGAUUUUAACAUG,0.762
UCAAGAUUUUUUAUGUAUGUAUAAAUAAGUAUUUUGGUGUGCUACACAGCUUUUUCAAAUUACCAGUAAUUUGUCUUGUUUCUAAGGAGUGGGCCAGUACUAACUUAACU,0.444
GAAGCUUAUAUCUCUCAAAUUAAUGGAUAUUAGCACUUGGAGGAAUGUAGGGGGAUCUCGGAAUGAACUCCUGGGGUUCCUGGUCUCCAGCCCAGCCUGAUGGUGUAAAU,0.506
UAAUUUUACCUUCACAUUAAUUCAAACCGUGCAAGUAACCACGGGGUCCAUCUUUUACAUCUGGUACACACAACAGACGCUCAGUUGUUCUUAACCACUUUUGUCAUUUG,0.563
AGAGUGCCCUUCAGGCUGUCAGGUCACGAGCUCCGAGCUGCCCUUAGUCCUUGUCAGCCUCACAGAGGUCUGCGCCCGACACUUCUGCCCUUUGAGACAAAAGAAACAGG,0.162
GGGUGUGCAGCCCUUGACCCAAAGCUUAAGCCUUGUGCUCCCAGGGGAGCCAGGAAGUGACGUGUGUGUCAUGUUACGGACAUCUGACUUUUGUGUGUGUGUGUGUGGGC,0.944
GGCAGCAUACUGUGCCAGCCAUGCACUGUAUUAGGGAGGGGGAUGUCAACAGCCUUGGUUGAGGUGGGAAUGCAAUUGAUGGGAGCCUGCUGCUGUGUCCUUCUCUACUC,8.09

# Sample 4 — technique: DHFR PCA, deep sequencing; sample: yeast; added: (+)-ABA 58 µM; relative to: wild-type fitted maximum; reading: higher = stronger binding
# Target: ABI1, truncated, D143A, DHFR fusion (Arabidopsis thaliana)
# Setting: methotrexate growth selection, single substitutions
# Starting sequence: PYL1, truncated, DHFR fusion (Arabidopsis thaliana); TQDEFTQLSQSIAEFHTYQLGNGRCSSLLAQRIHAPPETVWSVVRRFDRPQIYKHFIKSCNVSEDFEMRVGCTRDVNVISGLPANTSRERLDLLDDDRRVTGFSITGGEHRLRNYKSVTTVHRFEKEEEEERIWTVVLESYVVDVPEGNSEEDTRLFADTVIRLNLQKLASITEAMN; partner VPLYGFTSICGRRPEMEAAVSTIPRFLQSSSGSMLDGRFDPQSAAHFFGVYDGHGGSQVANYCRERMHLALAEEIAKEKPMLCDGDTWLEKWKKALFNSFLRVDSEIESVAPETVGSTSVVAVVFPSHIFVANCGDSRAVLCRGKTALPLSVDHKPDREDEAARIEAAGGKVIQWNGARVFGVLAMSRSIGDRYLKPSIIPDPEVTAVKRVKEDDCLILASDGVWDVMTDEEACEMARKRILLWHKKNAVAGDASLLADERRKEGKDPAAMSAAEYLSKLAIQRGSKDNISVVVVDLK
Change,relative binding score [%]
R113T,87.3
S171A,86.8
E14G,47.1
R155D,-0.445
F103M,61.7
E152K,78.7
E152V,76.5
P146I,14.8
Q7M,101
E130L,90.8
E67V,88.2
H55E,82
R113G,69.8
Q7Y,97.5
I162R,3.34
D96I,24.4
W41L,0.499
D159M,12.9

# Sample 5 — technique: protein-binding microarray; form: double-stranded DNA, one strand shown; sample: in vitro; tested at: 250 nM; setting: 60-bp whole probe; added: salmon DNA 0.4 mg/ml; relative to: random background probes; reading: higher = stronger binding; shared flanks, not repeated: GCCTAGCAC … GTCTTGATTCGCTTGACGCTGCTG
# Target: Interferon regulatory factor 7, full length, phosphomimetic (IRF7, Homo sapiens, UniProt Q92985, residues 1-503, S101K/S471D/S472D/S475D/S476D/S477D/S483D/S484D/S487D)
# UniProt Q92985, sequence (whole entry, unmodified, looked up): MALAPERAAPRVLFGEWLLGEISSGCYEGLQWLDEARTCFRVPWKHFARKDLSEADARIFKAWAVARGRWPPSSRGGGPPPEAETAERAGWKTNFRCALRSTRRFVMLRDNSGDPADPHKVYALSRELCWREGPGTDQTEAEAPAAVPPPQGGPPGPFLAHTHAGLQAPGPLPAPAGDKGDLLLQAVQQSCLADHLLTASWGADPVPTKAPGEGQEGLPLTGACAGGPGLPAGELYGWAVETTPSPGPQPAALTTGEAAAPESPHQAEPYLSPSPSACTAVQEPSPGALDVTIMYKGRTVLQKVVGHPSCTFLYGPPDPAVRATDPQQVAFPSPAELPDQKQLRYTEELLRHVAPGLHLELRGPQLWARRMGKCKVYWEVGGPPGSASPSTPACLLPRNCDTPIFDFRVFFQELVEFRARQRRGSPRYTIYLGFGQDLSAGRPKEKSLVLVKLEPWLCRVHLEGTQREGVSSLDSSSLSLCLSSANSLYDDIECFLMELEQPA
Strand,log fluorescence [z-score]
TTAAGTTTCGGACTGGGTTAGTGCTAG,4.57
TCATGTTTGAGAAATCAGACTGTGCTA,0.433
GAAGGTTTCCTTCTCCTGACGTGCTAG,2.15
TTCTCTTTCATTGCTGCCCTGTGCTAG,1.03
GACCAACTGGGGTATCGAGACGTGCTA,-0.232
GACGGTCTCGGTCACGGGACGTGCTAG,-0.135
GACGGTTTCCTTCTCCTGACGTGCTAG,2.66
TTATAACTGGGGTATCGATTAGTGCTA,0.338
TGCCCTCTAACTTCCCAATGGTGCTAG,0.514
TTAGAACTGAGACTGGATGAGTGCTAG,-0.447
TTAGGTTCCCTTTTCCATTAGTGCTAG,4.33
TTAGGTCTCCTACTGCGTTAGTGCTAG,-0.31
TTAGGTAGCCTACTGCTTTAGTGCTAG,-0.813
CCAGATTTCCCCACCATCTAGTGCTAG,1.54
TTAGATATCTGTCTCGATTAGTGCTAG,0.557
TTAGGTTTCGGTTCTGGTTAGTGCTAG,12.7
GACGGTATCCCTCTCCTGACGTGCTAG,-0.246
GACGCTCTCCTACTGCTGACGTGCTAG,0.0102
GCCGGTATCGGGTATCGGGACGTGCTA,0.524
AACGGTTTCGGTTTCGGGACGTGCTAG,14.1

# Sample 6 — organism: Saccharomyces cerevisiae; read-out: binding; technique: competitive growth deep sequencing; form: peptide; strain: cyclin D3-Cln2 fusion strain; tested at: concentration not given; setting: peptide tiling library; reading: direction not given
Sequence,growth enrichment score
ESSQLTVQAEFDMSAI,0.733
SCCKRKLVVGNGPEGP,-0.993
RKLHFEDEVT,-0.412
LRRQLSFSED,-0.367
IVLICAKRSLCAAFSV,-0.745
RRVLCFDS,-0.566
EPRNLLSLFEDTLDPT,-0.43
SSEVARHLLFQSHM,-1.28
VLLKRLQDVVSERANH,4.53
SAVPLILPQAPSGPSY,0.586
KPITLDTTDFQESFVT,0.373
PAKRRLELGE,-0.0826
TARRIFQEPTEPKTKA,1.23
PLRKAKRARLCSSSSS,0.482
ALTMEALEDPSPELME,1.59
NARRSLNFGGSTGT,-0.21
PARRRLRLSVDEVSSP,-1.11
